Published values from different studies.
Lines come from different studies, so protocols differ. “And” joins repeats or separate records; there may be more than shown. ± marks the error that the study gave.

| Molecule | test | test system | setting | how to read | endpoint | result |
| --- | --- | --- | --- | --- | --- | --- |
| TSNQVAVLY | AIM | peptide, CD8+ T cells from PBMC, human donors | dose not given | – | response magnitude per positive donor | 109 |
| COc1cc(O)ccc1/C=C/C(=O)c1ccc(O)cc1 | viral replication | SARS-CoV-2 trVLP system | 100 µM | – | inhibition | > 90% |
| C[n+]1ccc(-c2cc[n+](C)cc2)cc1 | – | FVB mice wild-type paraquat poisoning | dose not given, event flag 1 | – | survival time | 5 days and 4 days and 7 days and 6 days and 2 days and 3 days |
| mycosubtilin | calcein leakage | POPC/SM/CHOL liposomes | 150 µM, fusion peptide, SARS-CoV-2 | – | leakage time constant | 16 ± 4 min |
| CC(C)=CCc1cc(-c2coc3cc(O)cc(O)c3c2=O)cc(O)c1O | viral replication | SARS-CoV-2 trVLP system | 100 µM | – | inhibition | > 90% |
| ω-agatoxin IVA | cAMP signalling, high-content microscopy | DRG neurons, rat, spinal cord injury | dose not given, normalised 0 to 1, unit not given, with: forskolin, DAMGO 3 | baseline: DAMGO maximum, higher = stronger inhibition | PKA-RII phosphorylation inhibition | 0.739 and 0.605 and 0.77 |
| fengycin | calcein leakage | POPC/SM/CHOL liposomes | 150 µM, fusion peptide, SARS-CoV-2 | – | maximum fusion | 4 ± 3% |
| O=c1c(O)c(-c2ccc(O)c(O)c2)oc2cc(O)cc(O)c12 | viral replication | SARS-CoV-2 trVLP system | 100 µM | – | inhibition | > 90% |
| VAMPNLYKM | AIM | peptide, CD8+ T cells from PBMC, human donors | dose not given | – | response magnitude per positive donor | 108 |
| O=c1ccn([C@@H]2O[C@](F)(CO)[C@@H](O)[C@H]2O)c(=O)[nH]1 | – | Lassa virus Josiah strain, strain 13/N guinea pig | concentration not given | – | protection | 100% |
| CNC(=O)[C@@H](NC(=O)[C@H](CC(C)C)[C@H](O)C(=O)NO)C(C)(C)C | prothrombin time | human platelet-poor plasma | 0.1 µM, with: AP venom | – | inhibition | 5.1% and 5% and 6% |
| O=C(/C=C/c1ccc(O)cc1)c1ccc(O)cc1O | viral replication | SARS-CoV-2 trVLP system | 100 µM | – | inhibition | > 90% |
| CCc1c(C(=O)C(N)=O)c2c(OCC(=O)O)cccc2n1Cc1ccccc1 | – | PB population, mouse | intravenous, 60 µg/mouse, 24 h, preincubated with venom, with: Daboia russelii venom 2.5 x LD50 | – | survival | 0% |
| polymyxin B | calcein leakage | POPC/SM/CHOL liposomes | 150 µM, fusion peptide, SARS-CoV-2 | – | maximum fusion | 86 ± 4% |

For quick reference, copied from above:
| Molecule | test | test system | setting | how to read | endpoint | result |
| --- | --- | --- | --- | --- | --- | --- |
| fengycin | calcein leakage | POPC/SM/CHOL liposomes | 150 µM, fusion peptide, SARS-CoV-2 | – | maximum fusion | 4 ± 3% |
